{"data": "Measured values collected from several papers", "note": "Numbered parts are unrelated; each lists some results of a single study."}
{"data": "Series 1", "target": "5-hydroxytryptamine receptor 1B (HTR1B, Homo sapiens, UniProt P28222)", "read-out": "ligand displacement", "technique": "radioligand", "concentration": "10 µM", "chain of UniProt P28222 (whole entry, looked up)": "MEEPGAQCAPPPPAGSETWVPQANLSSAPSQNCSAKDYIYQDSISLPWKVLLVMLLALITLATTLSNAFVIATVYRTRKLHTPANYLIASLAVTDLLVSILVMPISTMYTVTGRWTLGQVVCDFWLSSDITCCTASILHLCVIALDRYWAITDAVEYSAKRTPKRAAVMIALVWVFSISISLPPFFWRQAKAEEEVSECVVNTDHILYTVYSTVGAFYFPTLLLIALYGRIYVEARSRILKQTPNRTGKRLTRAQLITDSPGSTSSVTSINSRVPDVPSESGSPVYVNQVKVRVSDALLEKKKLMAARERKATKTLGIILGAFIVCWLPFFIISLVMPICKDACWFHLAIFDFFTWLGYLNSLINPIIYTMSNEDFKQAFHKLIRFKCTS"}
{"Compound": "Cc1cnc(-c2cc(Cl)ccc2F)cc1-n1c(=O)n(CC(N)=O)c2cnccc21", "inhibition": "19.5%"}
{"Compound": "CC(C)CC(=O)N1CCc2nc(-c3ccc(Br)cc3)nc(N(C)Cc3ccccc3)c2C1", "inhibition": "12.9%"}
{"Compound": "CCS(=O)(=O)c1cc2cc(C[C@](O)(CC(C)(C)c3ccc(F)cc3C(N)=O)C(F)(F)F)[nH]c2cn1", "inhibition": "9.55%"}
{"Compound": "CC(=O)C1=C(C)N(c2cccc(C(F)(F)F)c2)C(=O)N[C@@H]1c1ccc(C#N)nc1", "inhibition": "6.69%"}
{"Compound": "CNCc1ccccc1-c1csc([C@@H](C)Nc2nc(C)nc3cc(OC)c(OC)cc23)c1", "inhibition": "66.1%"}
{"Compound": "C[C@@H]1CN(c2cc(-c3nn(C)c4ccc(OC5(C)CC5)cc34)ncn2)C[C@H](C)O1", "inhibition": "7.83%"}
{"Compound": "O=C1NC(c2ccccn2)Sc2ccccc21 (stereo not drawn)", "inhibition": "12.3%"}
{"Compound": "Cn1nc(C(=O)NCc2ccc(C(=O)O)cc2)cc1-c1ccc2[nH]ccc2c1", "inhibition": "5.48%"}
{"Compound": "NS(=O)(=O)c1cc(NC(=O)C2(c3ccccc3Cl)CC2)ccc1Oc1cccc(Cl)c1", "inhibition": "4.81%"}
{"data": "Series 2", "target": "Serine/threonine-protein kinase D1 (PRKD1, Homo sapiens, UniProt Q15139)", "read-out": "enzyme activity", "action": "inhibitor", "concentration": "0.5 µM", "baseline": "control", "Construct (Q15139 1-912)": "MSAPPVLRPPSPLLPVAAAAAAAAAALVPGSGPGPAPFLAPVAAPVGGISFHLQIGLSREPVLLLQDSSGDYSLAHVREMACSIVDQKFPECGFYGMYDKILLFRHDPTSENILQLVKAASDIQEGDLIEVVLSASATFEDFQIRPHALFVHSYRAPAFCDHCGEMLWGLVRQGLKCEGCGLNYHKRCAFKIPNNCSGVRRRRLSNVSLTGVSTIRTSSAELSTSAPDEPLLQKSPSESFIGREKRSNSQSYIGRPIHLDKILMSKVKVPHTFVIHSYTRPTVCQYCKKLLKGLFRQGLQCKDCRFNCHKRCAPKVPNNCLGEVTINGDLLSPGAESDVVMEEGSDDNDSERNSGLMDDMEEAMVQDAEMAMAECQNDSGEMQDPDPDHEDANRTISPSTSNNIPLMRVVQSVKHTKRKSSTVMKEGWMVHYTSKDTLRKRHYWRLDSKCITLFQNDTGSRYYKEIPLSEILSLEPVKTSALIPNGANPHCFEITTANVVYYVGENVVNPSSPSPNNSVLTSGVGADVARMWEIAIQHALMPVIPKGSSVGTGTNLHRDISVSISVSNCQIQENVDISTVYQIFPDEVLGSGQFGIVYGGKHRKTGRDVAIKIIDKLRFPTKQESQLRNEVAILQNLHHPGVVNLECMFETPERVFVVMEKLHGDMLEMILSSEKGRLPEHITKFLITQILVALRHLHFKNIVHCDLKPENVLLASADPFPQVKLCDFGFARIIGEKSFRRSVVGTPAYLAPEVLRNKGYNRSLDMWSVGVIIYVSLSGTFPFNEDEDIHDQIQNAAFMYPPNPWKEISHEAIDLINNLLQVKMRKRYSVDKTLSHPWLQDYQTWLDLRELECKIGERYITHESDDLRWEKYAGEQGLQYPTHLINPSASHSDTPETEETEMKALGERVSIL"}
{"Compound": "COc1cccc(-c2cc(=O)c3ccccc3o2)c1N", "remaining activity": "103%"}
{"Compound": "CCN(CC)CCCCN1c2ccccc2Oc2ccc(Cl)cc21", "remaining activity": "101%"}
{"Compound": "N#Cc1cnc2cnc(NCc3cccnc3)cc2c1Nc1ccc(F)c(Cl)c1", "remaining activity": "94.5%"}
{"Compound": "CC(C)N(CCC(=O)c1ccc2ccccc2c1)Cc1ccccc1", "remaining activity": "98%"}
{"Compound": "Clc1ccc(Nc2nnc(Cc3ccncc3)c3ccccc23)cc1", "remaining activity": "101%"}
{"Compound": "Cc1ccc(S(=O)(=O)/C=C/C#N)cc1", "remaining activity": "93.8%"}
{"Compound": "CN(C)S(=O)(=O)c1ccc2c(c1)/C(=C/c1cc3c([nH]1)CCCC3)C(=O)N2", "remaining activity": "102%"}
{"Compound": "COc1ccc2c(c1)c(C1=C(c3c[nH]c4ccccc34)C(=O)NC1=O)cn2CCCN(C)C", "remaining activity": "68.8%"}
{"Compound": "O=C(c1ccccc1)c1ccc(N2CCOCC2)cc1O", "remaining activity": "102%"}
{"Compound": "O=Nc1c(-c2c(O)[nH]c3ccccc23)[nH]c2ccccc12", "remaining activity": "85%"}
{"Compound": "O=C1NC(=O)/C(=C/c2ccc3c(c2)OC(F)(F)O3)S1", "remaining activity": "94.8%"}
{"Compound": "CCCCc1c(-c2ccc(OC)cc2)[nH]c2nccnc12", "remaining activity": "92.9%"}
{"Compound": "O=C1Cc2c([nH]c3ccc(Br)cc23)-c2ccccc2N1", "remaining activity": "101%"}
{"Compound": "N#CC(c1ccnc(NCCc2cccnc2)n1)c1nc2ccccc2s1 (stereo not drawn)", "remaining activity": "82.4%"}
{"Compound": "O=C(O)/C=C/c1cc(Br)c(Br)c(Br)c1Br", "remaining activity": "88.9%"}
{"Compound": "CNc1cc2c(Nc3cccc(Br)c3)ncnc2cn1", "remaining activity": "92.3%"}
{"Compound": "COc1cc2c(N3CCN(C(=O)Nc4ccc(OC(C)C)cc4)CC3)ncnc2cc1OCCCN1CCCCC1", "remaining activity": "96.1%"}
{"Compound": "Oc1cccc(-c2nc(N3CCOCC3)c3oc4ncccc4c3n2)c1", "remaining activity": "98.3%"}
{"Compound": "O=C1NC(=O)c2c1c1c3ccccc3[nH]c1n1cncc21", "remaining activity": "61.4%"}
{"Compound": "O=C1Nc2ccc(Br)cc2/C1=C/c1cc2c([nH]1)CCCC2", "remaining activity": "93.8%"}
{"Compound": "Cc1cc(Nc2cc(N3CCN(C)CC3)nc(Sc3ccc(NC(=O)C4CC4)cc3)n2)[nH]n1", "remaining activity": "102%"}
{"Compound": "c1ccc(-c2n[nH]c3c2oc2ccccc23)cc1", "remaining activity": "79.2%"}
{"Compound": "COc1cc2c(Nc3ccc(Br)cc3F)ncnc2cc1OCC1CCN(C)CC1", "remaining activity": "99.3%"}
{"Compound": "Nc1nc(Nc2ccc(S(N)(=O)=O)cc2)nn1C(=S)Nc1c(F)cccc1F", "remaining activity": "7.79%"}
{"Compound": "N#C/C(=C(/N)SC1C=CC=CC1)c1cccc(C(O)c2ccncc2)c1 (stereo not drawn)", "remaining activity": "98.5%"}
{"data": "Series 3", "SMILES": "CC(C)n1cnc(-c2ccc(F)cc2)c1-c1ncc(C(=O)Nc2ccc(N3CCN(C)CC3)cc2)[nH]1"}
{"technique": "Phase 2a trial", "refers to": "hypercholesterolaemia", "species": "human, idiopathic pulmonary fibrosis", "dose": "60 mg once daily", "notes": "grade 3", "patients with adverse event [%]": 0}
{"technique": "Phase 2a trial", "refers to": "blood glucose increased", "species": "human, idiopathic pulmonary fibrosis", "dose": "all compound arms total", "notes": "grade 2", "patients with adverse event [%]": 0}
{"technique": "Phase 2a trial", "refers to": "hepatic steatosis", "species": "human, idiopathic pulmonary fibrosis", "dose": "60 mg once daily", "notes": "grade 1", "patients with adverse event [%]": 0}
{"refers to": "prostatic calcification, maximum grade 5", "species": "idiopathic pulmonary fibrosis patients", "route": "oral", "dose": "60 mg once daily", "patients with adverse event [%]": 0}
{"technique": "Phase 2a trial", "refers to": "hyperlipidaemia", "species": "human, idiopathic pulmonary fibrosis", "dose": "60 mg once daily", "notes": "grade 5", "patients with adverse event [%]": 0}
{"technique": "Phase 2a trial", "refers to": "hypertriglyceridaemia", "species": "human, idiopathic pulmonary fibrosis", "dose": "30 mg once daily", "notes": "grade 3", "patients with adverse event [%]": 0}
{"technique": "Phase 2a trial", "refers to": "haemoptysis", "species": "human, idiopathic pulmonary fibrosis", "dose": "60 mg once daily", "notes": "grade 4", "patients with adverse event [%]": 0}
{"technique": "Phase 2a trial", "refers to": "hepatic steatosis", "species": "human, idiopathic pulmonary fibrosis", "dose": "60 mg once daily", "notes": "grade 5", "patients with adverse event [%]": 0}
{"technique": "Phase 2a trial", "refers to": "blood fibrinogen increased", "species": "human, idiopathic pulmonary fibrosis", "dose": "all compound arms total", "notes": "grade 3", "patients with adverse event [%]": 0}
{"technique": "Phase 2a trial", "refers to": "hypocalcaemia", "species": "human, idiopathic pulmonary fibrosis", "dose": "60 mg once daily", "notes": "grade 4", "patients with adverse event [%]": 0}
{"technique": "Phase 2a trial", "refers to": "hypercholesterolaemia", "species": "human, idiopathic pulmonary fibrosis", "dose": "30 mg once daily", "notes": "grade 3", "patients with adverse event [%]": 0}
{"refers to": "abnormal liver function test, grade 3", "species": "idiopathic pulmonary fibrosis patients", "dose": "dose not given", "notes": "all compound arms pooled", "patients with adverse event [%]": 0}
{"data": "Series 4", "target": "Diamine acetyltransferase 1 (Homo sapiens, UniProt P21673)", "action": "inhibitor", "concentration": "10 µM", "baseline": "control", "Residues (P21673 1-171)": "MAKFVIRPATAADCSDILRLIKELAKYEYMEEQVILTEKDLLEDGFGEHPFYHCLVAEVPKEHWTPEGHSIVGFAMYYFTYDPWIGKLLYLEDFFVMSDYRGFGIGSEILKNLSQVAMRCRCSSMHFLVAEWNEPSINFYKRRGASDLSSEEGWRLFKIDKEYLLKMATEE"}
{"Compound": "COc1cc(O)c2c(=O)c(O)c(-c3ccc(OC)c(O)c3)oc2c1", "remaining activity [%]": 112}
{"Compound": "C[C@H]1CC[C@@]2(OC1)O[C@H]1C[C@H]3[C@@H]4CC=C5C[C@@H](O)CC[C@]5(C)[C@H]4CC[C@]3(C)[C@H]1[C@@H]2C", "remaining activity [%]": 96.8}
{"Compound": "N[C@@H](Cc1ccc(O)c(O)c1)C(=O)O", "remaining activity [%]": 82.4}
{"Compound": "O=C(O)Cc1ccccc1O", "remaining activity [%]": 102}
{"Compound": "OCCCc1ccccc1", "remaining activity [%]": 86}
{"Compound": "COC(=O)C1=CO[C@@H](O[C@@H]2O[C@H](CO)[C@@H](O)[C@H](O)[C@H]2O)[C@@H]2[C@H](C)O[C@@H](O)C[C@H]12", "remaining activity [%]": 74}
{"Compound": "C=CC(C)(CCC=C(C)C)OC(C)=O (stereo not drawn)", "remaining activity [%]": 111}
{"Compound": "COC(=O)C1=CO[C@@H](O)[C@@H]2C(CO)=CC[C@H]12", "remaining activity [%]": 97.2}
{"Compound": "CCOC(=O)/C=C/c1ccc(O)c(OC)c1", "remaining activity [%]": 86.1}
{"Compound": "CCCCCCCCCCCCCCCCCCCCCC", "remaining activity [%]": 102}
{"Compound": "COc1ccc([C@@H]2COc3cc(O[C@@H]4O[C@H](CO)[C@@H](O)[C@H](O)[C@H]4O)ccc3C2)c(O)c1OC", "remaining activity [%]": 75.4}
